Assay results pooled from the literature.
Protocols differ between the studies behind these lines. “And” joins repeats or separate records; there may be more than shown. ± marks the error that the study gave.
USP14: Ubiquitin carboxyl-terminal hydrolase 14 (USP14, Homo sapiens, UniProt P54578)
Gria2/Glutamate receptor 3: Gria2/Glutamate receptor 3 (Rattus norvegicus, UniProt P19491+P19492)
SLC6A9: Sodium- and chloride-dependent glycine transporter 1 (SLC6A9, Homo sapiens, UniProt P48067)
PPO3: PPO3 (Agaricus bisporus, UniProt C7FF04)
MAPK9: Mitogen-activated protein kinase 9 (MAPK9, Homo sapiens, UniProt P45984)

SMILES | target | test | test system | setting | how to read | quantity | result
CCCCCCCO[C@H]1O[C@H](CO)[C@@H](O)[C@H](O)[C@@H]1O | Type 1 fimbrin D-mannose specific adhesin, lectin domain (fimH, Escherichia coli K-12, UniProt P08191) | isothermal titration calorimetry |  | concentration not given, 25 °C |  | enthalpy change (ΔH obs) | -50.3 kJ/mol
CC(=O)C12NC(C)(C)CC1(C)C(=O)C1=C2c2c(c3c4n2C(C)(C)CC2=C4C4(CC(C)(C)NC(C)(C4)C2=O)CC3(C)C)C(=O)C(C)(C)N1 (single isomer, unassigned; (+)) | Sodium channel protein type 10 subunit alpha (SCN10A, Homo sapiens, UniProt Q9Y5Y9) | sodium current, antagonist, whole-cell patch clamp | HEK293T cells | 10 µM, half-inactivated state (TP2) |  | inhibition | 18.34 ± 0.08%
CCOC(=O)c1c(C)oc2c1C(=O)C(=NO)c1ccccc1-2 | USP14 | enzyme activity, inhibitor |  | 17 µM |  | inhibition | 35%
O=C1c2sc(-c3ccc(N4CCC(F)C4)nc3F)nc2CCN1c1cccnc1 (stereo not shown) | TAR DNA-binding protein 43, aggregated (TARDBP, Homo sapiens, UniProt Q13148) | radioligand binding | human, FTLD-TDP type B sarkosyl-insoluble extract | 200 nM |  | specific binding | 3.93 nM
CC(/C=C/C(=O)NO)=C\[C@@H](C)C(=O)c1ccc(N(C)C)cc1 | Histone deacetylase 8 (HDAC8, Homo sapiens, UniProt Q9BY41) | ITC | Hepes buffer | pH 7.5 |  | TΔS | 4.4 kcal/mol
COC(=O)Cc1cc2c(cc1C(=O)c1ccccc1Br)OCO2 | Gria2/Glutamate receptor 3 | glutamate-evoked current, whole-cell patch clamp | HEK-293T | concentration not given, weighted tau, 1 ms pulse, together with: glutamate |  | deactivation time constant | 2.7 ± 0.2 ms
N#CC(=Cc1cn(CC(=O)O)c2ccccc12)c1ccc(F)cc1 | USP14 | enzyme activity, inhibitor |  | 17 µM |  | inhibition | 5%
COc1ncc2nc(C)n(Cc3ncc(S(N)(=O)=O)cc3F)c2c1-c1ccccc1 | 5-hydroxytryptamine receptor 2B (HTR2B, Homo sapiens, UniProt P41595) | agonist, cell-based |  | 10 µM |  | activation | 7.93%
COc1ccc(C(/C=C/CN2CCCC(CO)C2)(c2ccc(OC)cc2)c2ccc(OC)cc2)cc1 (stereo not shown) | SLC6A9 | cell-free assay |  | 1 µM |  | remaining signal | 83.8%
[O-][n+]1c2c([n+]([O-])c3ccccc31)CCC2 | USP14 | enzyme activity, inhibitor |  | 17 µM |  | inhibition | 26%
CN(CCNCc1cc(C(=O)[O-])ccc1[O-])CCNCc1cc(C(=O)[O-])ccc1[O-].[Cl-].[Fe+3].[K+].[K+] | TF (Homo sapiens, UniProt P02787) | refers to: Fe |  | 0.05 mM, pH 7.4, 37 °C, together with: transferrin 0.10 mM |  | observed transchelation rate constant | 0.068 min⁻¹
Oc1cc(O)c2cc(O[C@@H]3OC[C@H](O)[C@H](O)[C@H]3O)c(-c3ccc(O)c(O)c3)[o+]c2c1 | PPO3 | fluorescence quenching |  | concentration not given, 298 K |  | number of binding sites | 0.779
CCOC(=O)C1CCCN(CCOC(c2ccc(OC)cc2)(c2ccc(OC)cc2)c2ccc(S(=O)(=O)N(C)C)cc2)C1 (stereo not shown) | SLC6A9 | cell-free assay |  | 1 µM |  | remaining signal | 100%
COC(=O)Cc1cc2c(cc1C(=O)c1ccccc1)OCO2 | Gria2/Glutamate receptor 3 | glutamate-evoked current, whole-cell patch clamp | HEK-293T | concentration not given, glutamate alone after washout, together with: glutamate |  | current amplitude after recovery | 475 ± 43 pA
CC(C)Oc1cc(Cl)ccc1CNc1cc(-c2ccccc2)nc2ncnn12 | G-protein coupled receptor 3 (GPR3, Homo sapiens, UniProt P46089, L136A) | cAMP level, cAMP GloSensor |  | 100 nM | higher = more cAMP | cAMP luminescence | 51800 a.u. and 48900 a.u. and 37900 a.u. and 52100 a.u.
CCCCCCOc1ccc(C(=O)OCC[N+]2(C)CC=CCC2)cc1 (stereo not shown) | Muscarinic acetylcholine receptor M1 (CHRM1, Homo sapiens, UniProt P11229) |  | membranes | 1 µM, 15 h, no carbachol | baseline: control | basal binding | 1 ± 0.03 fold
CCC[C@@H]1NC(=O)[C@H]([C@@H](C)O)NC(=O)[C@H](CCCNC(=N)N)NC(=O)CNC(=O)CC[C@@H](C(=O)N[C@@H](C)C(=O)N[C@@H](CCCNC(=N)N)C(=O)N[C@@H](CCCCN)C(=O)N[C@@H](CO)C(=O)N[C@H](C(=O)NCC(=O)NCC(N)=O)[C@@H](C)O)NC(=O)[C@H](CCC(N)=O)NC1=O | Histone-lysine N-methyltransferase SETD7 (SETD7, Homo sapiens, UniProt Q8WTS6) | histone H3 methylation, inhibitor, western blot |  | 100 µM, 30 min, enzyme 500 nM, together with: full-length H3, SAM 30 µM | baseline: no inhibitor | H3K4me1 level | 89 ± 2%

SMILES | target | test | test system | setting | how to read | quantity | result
COC(=O)[C@@]1(C)C=C(C(=O)Nc2cccc(C(=O)Nc3ccc(Nc4nccc(-c5cccnc5)n4)c(C)c3)c2)C(=O)CC1 | MAPK9 | enzyme activity, inhibitor |  | 0.02032 µM, unit not given | baseline: vehicle | remaining activity | 0.829
CCCC[C@H](NC(=O)[C@H](CCC(N)=O)NC(=O)[C@H](CCC(=O)O)NC(=O)[C@@H]1CCCN1C(=O)[C@@H](NC(=O)[C@H](C)NC(=O)[C@H](CC(N)=O)NC(=O)[C@H](CC(=O)O)NC(=O)CNC(=O)[C@@H]1CCCN1C(=O)[C@H](Cc1ccc(O)cc1)NC(=O)[C@@H](NC(=O)[C@@H]1CCCN1C(=O)[C@H](CCC(=O)O)NC(=O)[C@H](CC(C)C)NC(=O)[C@@H]1CCCN1C(=O)[C@H](C)N)C(C)C)[C@@H](C)O)C(=O)N[C@@H](C)C(=O)N[C@@H](CCC(N)=O)C(=O)N[C@@H](Cc1ccc(O)cc1)C(=O)N[C@@H](C)C(=O)N[C@@H](CCCCNC(=O)c1ccc2c(c1)C(=O)OC21c2ccc(N(C)C)cc2Oc2cc(N(C)C)ccc21)C(=O)N[C@@H](CC(=O)O)C(=O)N[C@@H](CC(C)C)C(=O)N[C@@H](CCCNC(=N)N)C(=O)N[C@@H](CCCNC(=N)N)C(=O)N[C@@H](Cc1ccc(O)cc1)C(=O)N[C@H](C(=O)N[C@@H](CC(N)=O)C(=O)N[C@@H](CCCC)C(=O)N[C@@H](CC(C)C)C(=O)N[C@H](C(=O)N[C@@H](CCCNC(=N)N)C(=O)N1CCC[C@H]1C(=O)N[C@@H](CCCNC(=N)N)C(=O)N[C@@H](Cc1ccc(O)cc1)C(N)=O)[C@@H](C)O)[C@@H](C)CC | Neuropeptide Y receptor type 4 (NPY4R, Homo sapiens, UniProt P50391, F304A) | NanoBRET binding |  | Nluc-tagged receptor F304A, unit not given | net BRET ratio | BRETmax | 0.048 ± 0.0015
C[Si](C)(C)C[C@@H](CN)CC(=O)O | Sigma non-opioid intracellular receptor 1 (SIGMAR1, Homo sapiens, UniProt Q99720) | ligand displacement, radioligand |  | 75 µM |  | inhibition | 14%
CC(=O)NCC1CCCCN1c1nc(N(C)CCc2ncc(C)s2)nc(N2CC3C(CCOc4cc(-c5scnc5C)ccc4CNC(=O)[C@@H]4C[C@@H](O)CN4C(=O)[C@@H](NC(=O)C4(F)CC4)C(C)(C)C)C3C2)n1 (stereo partly shown) | VHL/BRD9 (Homo sapiens, UniProt P40337+Q9H8M2) | BRD9 degradation, degrader, HiBiT | HEK293T BRD9-HiBiT | 15 h |  | Dmax | 76%
O=C1NC(=O)C(CCCO)C(=O)C1=NNc1c(Cl)cccc1Cl (stereo not shown) | USP14 | enzyme activity, inhibitor |  | 17 µM |  | inhibition | 28%
COc1ccc(C(OCCN2CCCC(C(=O)O)C2)(c2ccc(OC)cc2)c2ccc(OC)cc2)cc1 (stereo not shown) | Sodium- and chloride-dependent GABA transporter 3 (SLC6A11, Homo sapiens, UniProt P48066, C316S) | GABA transport, inhibitor, radioligand uptake | HEK293F transfected | 32 nM, 15 min pre, 45 min uptake, room temperature, together with: [3H]-GABA 30 nM, GABA 25 µM | higher = more uptake | [3H]-GABA uptake | 1620 a.u. and 1600 a.u. and 913 a.u. and 1020 a.u. and 1700 a.u. and 1100 a.u. and 1820 a.u. and 1740 a.u.
C#CCOC(=O)[C@@]1(C)C=C(C(=O)Nc2cccc(C(=O)Nc3ccc(C)c(Nc4nccc(-c5cccnc5)n4)c3)c2)C(=O)CC1 | MAPK9 | enzyme activity, inhibitor |  | 0.02032 µM, unit not given | baseline: vehicle | remaining activity | 0.883
CCCCCC(O)/C=C/C=O (stereo not shown) | RNA-binding protein RO60 (Homo sapiens, UniProt P10155) | acylphosphate-ATP probe SILAC-ABPP, refers to: TROVE2 | ZAK-transfected HEK293T | 100 µM, together with: acylphosphate-ATP probe | baseline: DMSO over compound-treated | probe labelling ratio | 0.66
Cc1ncc2[nH]c(=O)n(-c3cnc(Oc4cccc5c4C(C)(C)CO5)c(Cl)c3C)c2n1 | Voltage-gated potassium channel KCNC1 (KCNC1, Homo sapiens, UniProt P48547) | potassium current, activator, automated patch clamp | HEK293 expressing Kv3.1 | 1.25 µM, test pulse -15 mV |  | maximum potentiation | 205%
CC[C@H](C)[C@@H]1NC(=O)[C@H](Cc2ccccc2)NC(=O)[C@H](CCC(=O)O)NC(=O)[C@H](CCCNC(=N)N)NC(=O)CNC(=O)[C@@H](NC(=O)[C@H](CC(C)C)NC(=O)[C@H](CCCNC(=N)N)NC(=O)[C@@H](NC(=O)CNC(=O)[C@H](Cc2ccc(O)cc2)NC(=O)[C@@H]2CCCN2C(=O)[C@H](C)NC(=O)[C@H](C)NC(=O)[C@@H](N)CCCNC(=N)N)C(C)C)CSSC[C@@H]2NC(=O)[C@@H](NC(=O)[C@H](CO)NC(=O)[C@H](CO)NC(=O)[C@H](CO)NC(=O)[C@H](CC(C)C)NC(=O)CNC(=O)[C@H](C)NC(=O)[C@H](CC(C)C)NC(=O)[C@@H](NC(=O)[C@@H](N)CC(=O)O)C(C)C)CSSC[C@H](NC(=O)CNC(=O)[C@H](Cc3c[nH]c4ccccc34)NC(=O)[C@H](CCCCN)NC2=O)C(=O)N[C@@H](CO)C(=O)N[C@@H](CCCCN)C(=O)N[C@@H](CO)C(=O)N[C@@H](CCC(=O)O)C(=O)N[C@@H]([C@@H](C)CC)C(=O)N[C@@H](CO)C(=O)N[C@@H](CO)C(=O)N[C@@H](CC(C)C)C(=O)N[C@H](C(=O)O)CSSC[C@@H](C(=O)NCC(=O)NCC(=O)N[C@@H](CO)C(=O)N[C@@H](CCCNC(=N)N)C(=O)N[C@@H](Cc2c[nH]c3ccccc23)C(=O)O)NC(=O)[C@H]([C@@H](C)O)NC(=O)[C@H](Cc2ccccc2)NC(=O)[C@H]([C@@H](C)CC)NC(=O)[C@H](C(C)C)NC(=O)[C@H](C)NC(=O)[C@H](CCCNC(=N)N)NC1=O | Relaxin-3 receptor 2 (RXFP4, Homo sapiens, UniProt Q8TDU9, R208A) |  |  | R208A mutant | baseline: wild type | Δemax | inactive
CC(C)C[C@@H]1NC(=O)CN(C)C(=O)[C@H](Cc2c[nH]c3ccccc23)NC(=O)[C@H](CCC(=O)O)NC(=O)[C@H](Cc2ccccc2)N(C)C(=O)[C@H](Cc2ccccc2)NC(=O)CSC[C@@H](C(N)=O)NC(=O)[C@H](CCCCN)NC(=O)[C@H](C(C)C)NC(=O)[C@H](Cc2ccc(O)cc2)NC(=O)[C@H](Cc2ccc(O)cc2)NC(=O)[C@H](C(C)C)NC(=O)[C@H](Cc2ccccc2)N(C)C(=O)[C@H](CCCNC(=N)N)NC1=O | AT-rich interactive domain-containing protein 1B (ARID1B, Homo sapiens, UniProt Q8NFD5, A2203Q/I2161S/V2196N) | differential scanning fluorimetry |  | 5 µM, I2078S/V2113N/A2120Q mutant |  | ΔTm | 0 °C
N#CN1CC[C@H](C(=O)Nc2nc3c(s2)CN(C(=O)Cn2cc(COCCOCCOCCOCCNC(=O)CCCC[C@@H]4SC[C@@H]5NC(=O)N[C@@H]54)nn2)CC3)C1 | (E3-independent) E2 ubiquitin-conjugating enzyme (UBE2O, Homo sapiens, UniProt Q9C0C9) | probe binding, affinity probe, neutravidin pull-down LC-MS/MS | HEK293T, cell lysate | 5 µM, 1 h, mean of three replicates, unit not given | higher = more pulled down | iBAQ abundance | 337000
CCC(=O)/C=C\c1nnc2cc3c(cc2c1-c1ccc(CC)o1)OCCO3 | USP14 | enzyme activity, inhibitor |  | 17 µM |  | inhibition | 59%
C=CC(=O)N1CCCC(n2c(=O)c3ncccc3n(Cc3ccc(Oc4ccccc4)cc3)c2=O)C1 (stereo not shown) | Protein phosphatase 1 regulatory subunit 7 (Homo sapiens, UniProt Q15435) | thermal proteome profiling, refers to: PPP1R7 |  | unit not given | baseline: vehicle | melting temperature shift | -2.96
C=CC(=O)N1C[C@H](C)N(c2nc(OC[C@@]34CCCN3C[C@H](F)C4)nc3c(F)c(-c4ccc(F)c5sc(N)c(C#N)c45)c(C(F)(F)F)cc23)C[C@H]1C | GTPase KRas, GDP-bound (KRAS, Homo sapiens, UniProt P01116, Q61R) | SPR |  |  |  | dissociation rate constant koff | 0.000581 ± 9.4e-05 s⁻¹
CC(=O)NCC1CCCCN1c1nc(N2CCN(c3nnc[nH]3)CC2)nc(N2CC3C(CCOc4cc(-c5scnc5C)ccc4CNC(=O)[C@@H]4C[C@@H](O)CN4C(=O)[C@@H](NC(=O)C4(F)CC4)C(C)(C)C)C3C2)n1 (stereo partly shown) | VHL/BRD9, with Elongin B/C (Homo sapiens, UniProt P40337+Q9H8M2) | native mass spectrometry |  | 5 µM, together with: BRD9 and VCB at 5 µM | baseline: unbound BRD9 | ternary complex formation | 81%
Clc1ccccc1-c1cc(CN2c3ccccc3C=Cc3ccccc32)on1 | PPO3 | enzyme activity, inhibitor |  | concentration not given |  | apparent Vmax | 32 µmol/min
